# Assay results from different studies.
# Numbered parts are unrelated; each lists some results of a single study.

# Set 1 — technique: RNA Bind-n-Seq; form: RNA; sample: in vitro; concentration: 200 nM; setting: whole 134-nt RNA, ends assumed; added: 150 mM KCl; baseline: input library; direction: higher = stronger binding
# Target: Ras GTPase-activating protein-binding protein 1, full length (G3BP1, Homo sapiens, UniProt Q13283)
# Sequence of UniProt Q13283 (whole entry, looked up): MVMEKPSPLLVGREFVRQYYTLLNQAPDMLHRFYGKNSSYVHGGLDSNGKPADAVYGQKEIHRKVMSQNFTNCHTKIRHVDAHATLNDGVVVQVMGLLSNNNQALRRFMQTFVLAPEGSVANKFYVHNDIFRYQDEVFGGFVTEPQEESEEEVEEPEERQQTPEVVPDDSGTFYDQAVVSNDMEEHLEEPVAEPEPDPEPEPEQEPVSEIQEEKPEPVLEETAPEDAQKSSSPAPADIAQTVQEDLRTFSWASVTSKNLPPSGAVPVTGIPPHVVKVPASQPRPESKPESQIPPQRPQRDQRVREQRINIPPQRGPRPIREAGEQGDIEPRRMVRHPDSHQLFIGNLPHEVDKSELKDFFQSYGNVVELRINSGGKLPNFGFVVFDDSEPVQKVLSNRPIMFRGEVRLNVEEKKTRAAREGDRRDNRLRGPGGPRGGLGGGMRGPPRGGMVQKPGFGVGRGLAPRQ
# All sequences stand within: GGGAGUUCUACAGUCCGACGAUC … UGGAAUUCUCGGGUGUCAAGG
Strand,log2 enrichment
CAAGUCCUGUGCUACACAUCGUAUGUACCGAAUCAAACCCAAAUUUAAAUUUAAAAAAGUAUUAUGUUACGCCGUUCGGAUCUGCACUUC,-0.217
AAGUCCUGUGCUACACAUCGUAUGUACCGAAUCGGUUUUUUUGGUUUGGUUUUUGGAAAGUAUUAUGUUACGCCGUUCGGAUCUGCACUU,-1.14
CCUCAAGUCCUGUGCUACACAUCGUAUGUACCGAAUCGGAGGUGGAAAAAGGAAAGUAUUAUGUUACGCCGUUCGGAUCUGCACUUCCAG,-0.151
CUGUGCUACACAUCGUAUGUACCGAAUCGGGGAAAAAAAGGGGAAAAAAAGGGGAAAGGGGAAAGUAUUAUGUUACGCCGUUCGGAUCUG,-0.122
UAACUUUAGAGGAGGAUCUGAUGGAUAUGGCAGUGGACGUGGAGUUGGGGAUGGCUAUAAUGGGUAUGGAGGAGGACCUGGAGGUGGCAA,0.418
AGUCCUGUGCUACACAUCGUAUGUACCGAAUCGGGCCCCCGGCCCCCGGGCCCCCGGGAAAGUAUUAUGUUACGCCGUUCGGAUCUGCAC,-0.928
UGUGCUACACAUCGUAUGUACCGAAUCGGGGCCCCCCCGGGCCCCCCCGGGCCCCCCCGGGGAAAGUAUUAUGUUACGCCGUUCGGAUCU,-1.71

# Set 2 — technique: protein-binding microarray; form: double-stranded DNA, one strand shown; sample: in vitro; concentration: 250 nM; setting: 60-bp whole probe; added: salmon DNA 0.4 mg/ml; baseline: random background probes; direction: higher = stronger binding; all sequences stand within: GCCTAGCAC … GTCTTGATTCGCTTGACGCTGCTG
# Target: Interferon regulatory factor 5, full length, phosphomimetic (IRF5, Homo sapiens, UniProt Q13568-2, residues 1-514, K96S/S451D/S453D/S456D/S462D)
Strand,log fluorescence
GACGGTCTCGCACTGGGGACGTGCTAG,-0.261 z-score
TTAGATCTCAGACAGGATTAGTGCTAG,-0.111 z-score
TACCCTTTGAAAGTTGTTTTAGTGCTA,0.533 z-score
TTAGGTATCGACTATCGGTTTGTGCTA,7.82 z-score
TCAGGTTTTTTTTTAATACTGTGCTAG,0.48 z-score
TTAGGTCTCGGTATCGGATAGTGCTAG,1.78 z-score
TTAGATCTCAGTATCGATGAGTGCTAG,4.79 z-score

# Set 3 — technique: protein binding microarray; form: double-stranded DNA, one strand shown; sample: in vitro; concentration: not given; baseline: not given; direction: higher = stronger binding
# Target: Histone acetyltransferase KAT6A, winged helix 2, GST fusion (KAT6A, Homo sapiens, UniProt Q92794, residues 85-181)
# Setting: 8-mer, flanks averaged, mean of 2 arrays, mostly near background
# Target sequence (chain): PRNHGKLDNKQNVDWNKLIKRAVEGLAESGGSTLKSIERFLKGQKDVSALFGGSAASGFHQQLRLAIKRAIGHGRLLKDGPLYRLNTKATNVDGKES
Strand,E-score
CACCTCAA,0.0198
ACGTGTTG,0.0558
CAAAGAAC,0.21
CCACGGCG,0.226
CGGGTCAA,0.121
CCTACTGC,0.0272
CAGCGCAC,0.158
TCCCGGGA,-0.0315
AGTTCGGG,0.174
ACCGCAGT,0.0145
GTGCGCAC,0.136

# Further values, each from its own experiment
Molecule,target,assay,system,conditions,how to read,quantity,result
"PhoQ, residues 284 288 289 292 302 303 AEGLLW","PhoP, residues 12 14 15 18 19 TPLRH (Escherichia coli, UniProt P23836)","Sort-seq, item: YFP reporter",E. coli,"PhoQ-PhoP variant library, added: 10 µM Mg2+","baseline: high Mg2+ state, higher = stronger signaling",fold induction,0.805

# A few entries again (set 1):
Strand,log2 enrichment
UGUGCUACACAUCGUAUGUACCGAAUCGGGGCCCCCCCGGGCCCCCCCGGGCCCCCCCGGGGAAAGUAUUAUGUUACGCCGUUCGGAUCU,-1.71
CAAGUCCUGUGCUACACAUCGUAUGUACCGAAUCAAACCCAAAUUUAAAUUUAAAAAAGUAUUAUGUUACGCCGUUCGGAUCUGCACUUC,-0.217
UAACUUUAGAGGAGGAUCUGAUGGAUAUGGCAGUGGACGUGGAGUUGGGGAUGGCUAUAAUGGGUAUGGAGGAGGACCUGGAGGUGGCAA,0.418
AAGUCCUGUGCUACACAUCGUAUGUACCGAAUCGGUUUUUUUGGUUUGGUUUUUGGAAAGUAUUAUGUUACGCCGUUCGGAUCUGCACUU,-1.14
